# Experimental data pooled from the literature.
# Every numbered part comes from another study and shows a few of its results, in no order. ± gives the spread as reported.
# Chain of UniProt P08631 (whole entry, looked up): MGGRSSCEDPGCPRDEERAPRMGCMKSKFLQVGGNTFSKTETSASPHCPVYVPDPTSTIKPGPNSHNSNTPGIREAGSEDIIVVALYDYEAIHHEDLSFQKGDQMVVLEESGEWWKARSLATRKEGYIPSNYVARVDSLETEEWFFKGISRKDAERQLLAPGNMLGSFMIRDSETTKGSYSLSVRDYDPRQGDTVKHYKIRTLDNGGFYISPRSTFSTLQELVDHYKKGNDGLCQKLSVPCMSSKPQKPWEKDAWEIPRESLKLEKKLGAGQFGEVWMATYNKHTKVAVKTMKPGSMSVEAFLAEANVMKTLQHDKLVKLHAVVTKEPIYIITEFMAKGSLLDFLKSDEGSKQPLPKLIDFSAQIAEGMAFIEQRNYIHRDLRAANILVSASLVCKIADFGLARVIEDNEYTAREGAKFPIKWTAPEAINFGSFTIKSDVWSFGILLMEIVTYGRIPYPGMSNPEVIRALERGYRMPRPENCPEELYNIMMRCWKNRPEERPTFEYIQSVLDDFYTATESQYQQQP
# Chain of UniProt Q16539 (whole entry, looked up): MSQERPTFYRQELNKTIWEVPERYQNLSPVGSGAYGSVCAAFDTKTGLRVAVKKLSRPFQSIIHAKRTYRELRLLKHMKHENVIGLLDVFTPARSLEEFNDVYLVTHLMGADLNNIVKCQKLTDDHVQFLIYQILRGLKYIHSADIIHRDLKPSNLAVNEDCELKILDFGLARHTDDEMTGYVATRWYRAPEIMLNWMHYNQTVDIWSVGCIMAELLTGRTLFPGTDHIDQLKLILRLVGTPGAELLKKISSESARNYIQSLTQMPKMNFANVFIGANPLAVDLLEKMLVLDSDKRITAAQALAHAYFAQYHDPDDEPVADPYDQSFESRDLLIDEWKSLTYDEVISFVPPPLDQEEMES
# Chain of UniProt Q9HBH9 (whole entry, looked up): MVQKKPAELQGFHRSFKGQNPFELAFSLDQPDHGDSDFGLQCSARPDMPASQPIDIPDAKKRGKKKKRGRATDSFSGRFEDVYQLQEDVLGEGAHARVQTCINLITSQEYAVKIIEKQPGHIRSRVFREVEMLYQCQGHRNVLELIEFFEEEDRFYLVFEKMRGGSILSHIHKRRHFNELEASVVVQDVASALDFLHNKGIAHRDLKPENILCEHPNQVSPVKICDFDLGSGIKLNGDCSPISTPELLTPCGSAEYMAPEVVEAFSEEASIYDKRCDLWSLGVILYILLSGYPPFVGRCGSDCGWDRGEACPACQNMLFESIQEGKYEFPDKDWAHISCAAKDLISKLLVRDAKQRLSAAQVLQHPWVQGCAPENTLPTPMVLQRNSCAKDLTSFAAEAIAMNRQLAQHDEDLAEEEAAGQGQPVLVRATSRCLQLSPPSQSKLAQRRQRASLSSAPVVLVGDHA
# Chain of UniProt P41743 (whole entry, looked up): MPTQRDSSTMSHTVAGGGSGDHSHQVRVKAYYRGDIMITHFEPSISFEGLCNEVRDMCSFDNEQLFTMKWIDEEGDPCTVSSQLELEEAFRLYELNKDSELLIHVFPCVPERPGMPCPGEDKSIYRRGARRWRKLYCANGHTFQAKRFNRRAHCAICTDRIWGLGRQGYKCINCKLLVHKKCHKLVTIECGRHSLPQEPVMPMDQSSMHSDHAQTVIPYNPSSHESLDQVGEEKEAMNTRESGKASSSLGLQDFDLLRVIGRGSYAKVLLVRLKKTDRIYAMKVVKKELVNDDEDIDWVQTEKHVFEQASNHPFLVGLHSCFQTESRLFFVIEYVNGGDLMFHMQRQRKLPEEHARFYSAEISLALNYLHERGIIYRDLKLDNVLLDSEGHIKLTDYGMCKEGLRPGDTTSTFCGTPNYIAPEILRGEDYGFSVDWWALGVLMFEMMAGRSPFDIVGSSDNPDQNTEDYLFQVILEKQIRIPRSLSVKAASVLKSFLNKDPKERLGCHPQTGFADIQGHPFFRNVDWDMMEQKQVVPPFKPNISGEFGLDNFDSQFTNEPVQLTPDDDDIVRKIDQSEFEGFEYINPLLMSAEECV
# Chain of UniProt P31751 (whole entry, looked up): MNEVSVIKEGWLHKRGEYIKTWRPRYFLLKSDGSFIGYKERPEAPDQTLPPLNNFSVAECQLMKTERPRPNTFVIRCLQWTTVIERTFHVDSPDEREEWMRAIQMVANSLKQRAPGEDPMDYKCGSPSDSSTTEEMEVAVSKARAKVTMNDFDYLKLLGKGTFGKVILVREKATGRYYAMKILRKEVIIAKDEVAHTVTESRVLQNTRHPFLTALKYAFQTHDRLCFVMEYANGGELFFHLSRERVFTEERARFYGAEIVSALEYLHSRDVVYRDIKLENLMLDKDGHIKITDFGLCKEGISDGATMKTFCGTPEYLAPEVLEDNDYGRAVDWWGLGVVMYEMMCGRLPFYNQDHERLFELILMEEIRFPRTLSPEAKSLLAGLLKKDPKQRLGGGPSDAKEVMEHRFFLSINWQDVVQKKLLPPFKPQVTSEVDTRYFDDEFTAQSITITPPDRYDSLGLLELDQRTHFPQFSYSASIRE
# Chain of UniProt P42680 (whole entry, looked up): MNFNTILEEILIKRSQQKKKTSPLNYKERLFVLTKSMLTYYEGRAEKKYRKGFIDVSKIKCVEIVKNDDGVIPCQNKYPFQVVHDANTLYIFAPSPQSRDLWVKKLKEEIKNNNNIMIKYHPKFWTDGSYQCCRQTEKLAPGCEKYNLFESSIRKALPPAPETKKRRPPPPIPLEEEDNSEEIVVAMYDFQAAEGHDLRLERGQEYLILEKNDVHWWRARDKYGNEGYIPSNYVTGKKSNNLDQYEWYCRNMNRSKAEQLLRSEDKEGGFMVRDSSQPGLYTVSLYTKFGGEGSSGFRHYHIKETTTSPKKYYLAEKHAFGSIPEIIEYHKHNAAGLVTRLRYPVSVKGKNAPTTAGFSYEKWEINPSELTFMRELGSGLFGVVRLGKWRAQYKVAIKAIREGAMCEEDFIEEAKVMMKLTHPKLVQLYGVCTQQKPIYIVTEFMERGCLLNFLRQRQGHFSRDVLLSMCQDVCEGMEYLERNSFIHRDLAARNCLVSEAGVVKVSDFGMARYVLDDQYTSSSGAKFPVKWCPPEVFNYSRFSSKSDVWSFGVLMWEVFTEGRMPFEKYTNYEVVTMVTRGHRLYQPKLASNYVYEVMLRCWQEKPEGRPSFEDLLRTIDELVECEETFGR
# Chain of UniProt Q15303 (whole entry, looked up): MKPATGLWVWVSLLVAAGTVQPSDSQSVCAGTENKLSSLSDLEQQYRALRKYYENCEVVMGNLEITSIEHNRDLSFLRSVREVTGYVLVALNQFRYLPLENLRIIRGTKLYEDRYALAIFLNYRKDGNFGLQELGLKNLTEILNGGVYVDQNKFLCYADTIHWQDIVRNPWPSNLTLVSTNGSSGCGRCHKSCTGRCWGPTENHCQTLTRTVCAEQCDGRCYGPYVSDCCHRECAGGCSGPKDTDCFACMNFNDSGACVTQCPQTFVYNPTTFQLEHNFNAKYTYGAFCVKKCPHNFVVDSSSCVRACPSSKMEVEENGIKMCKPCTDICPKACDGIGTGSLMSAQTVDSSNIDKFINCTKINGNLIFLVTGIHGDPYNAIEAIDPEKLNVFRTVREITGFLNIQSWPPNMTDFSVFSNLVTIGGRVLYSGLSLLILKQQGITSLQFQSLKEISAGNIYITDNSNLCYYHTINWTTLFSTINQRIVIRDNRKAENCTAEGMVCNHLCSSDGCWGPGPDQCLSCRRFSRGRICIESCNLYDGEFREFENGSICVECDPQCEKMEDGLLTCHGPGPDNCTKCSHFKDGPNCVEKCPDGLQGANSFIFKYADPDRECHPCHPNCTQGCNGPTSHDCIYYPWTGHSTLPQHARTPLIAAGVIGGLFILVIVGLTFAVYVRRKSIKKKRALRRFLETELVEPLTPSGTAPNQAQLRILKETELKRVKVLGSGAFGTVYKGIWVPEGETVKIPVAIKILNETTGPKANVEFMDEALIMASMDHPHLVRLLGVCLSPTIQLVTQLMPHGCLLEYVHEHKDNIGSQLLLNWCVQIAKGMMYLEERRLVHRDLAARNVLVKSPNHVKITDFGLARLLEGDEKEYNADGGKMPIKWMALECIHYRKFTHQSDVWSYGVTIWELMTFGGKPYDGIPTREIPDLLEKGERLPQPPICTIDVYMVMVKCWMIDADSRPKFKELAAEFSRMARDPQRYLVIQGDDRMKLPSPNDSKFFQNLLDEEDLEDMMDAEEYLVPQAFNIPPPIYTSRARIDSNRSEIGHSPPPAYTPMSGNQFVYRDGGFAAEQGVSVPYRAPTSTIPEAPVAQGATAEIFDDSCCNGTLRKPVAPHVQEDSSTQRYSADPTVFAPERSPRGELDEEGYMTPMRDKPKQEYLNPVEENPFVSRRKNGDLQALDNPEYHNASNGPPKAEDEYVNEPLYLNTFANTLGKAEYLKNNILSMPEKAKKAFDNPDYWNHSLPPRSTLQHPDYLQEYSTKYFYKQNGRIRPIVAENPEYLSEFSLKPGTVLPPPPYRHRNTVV

# Series 1 — organism: Sarcocystis neurona; effect on: parasite growth; tested at: 10 µM; notes: first screen; relative to: untreated
Structure (SMILES),log2 fold change
COc1ccc(CC(C)NCC(O)c2ccc(O)c(NC=O)c2)cc1.COc1ccc(CC(C)NCC(O)c2ccc(O)c(NC=O)c2)cc1.O.O.O=C(O)/C=C/C(=O)O (stereo not shown),0.18
COc1cc(C[C@@H](CO)[C@H](CO)Cc2ccc(O)c(OC)c2)ccc1O,0.45
C[C@]12CCC(=O)C=C1CC[C@@H]1[C@@H]2C(=O)C[C@@]2(C)[C@H]1CC[C@]2(O)C(=O)CO,-0.06
Fc1ccc([C@@H]2CCNC[C@H]2COc2ccc3c(c2)OCO3)cc1.O=C(O)/C=C\C(=O)O,-0.21
OC[C@H]1O[C@@H](n2cnc3c(NC4CCCC4)nc(Cl)nc32)[C@H](O)[C@@H]1O,0.12
CCN(CC)CCNC(=O)c1cc(Cl)c(N)cc1OC.Cl,0.15
Cc1cccc(CN2CCN(C(c3ccccc3)c3ccc(Cl)cc3)CC2)c1.Cl.Cl (stereo not shown),-0.19
Nc1ncn([C@@H]2O[C@H](CO)[C@@H](O)[C@H]2O)c(=O)n1,0.19
CCCc1nc(C)c2c(=O)[nH]c(-c3cc(S(=O)(=O)N4CCN(CC)CC4)ccc3OCC)nn12.O=C(O)CC(O)(CC(=O)O)C(=O)O,0.1
C[C@]12CC[C@@H]3c4ccc(O)cc4CC[C@H]3[C@@H]1CC[C@@H]2O,0.23
COc1cc(N)c(Cl)cc1C(=O)NC1CCN(CCCOc2ccc(F)cc2)CC1OC.O (stereo not shown),-0.48
CCCN[C@H]1CCc2nc(N)sc2C1.Cl,0.19

# Series 2 — effect on: kinase activity
# Compound: COc1cc(C(=O)N2CCC(N3CCN(C)CC3)CC2)ccc1Nc1ncc2c(n1)N(C)c1ccccc1C(=O)N2C
target,tested at,remaining activity [%]
HIPK3,1 µM,90 ± 3
HER4,10 µM,72 ± 4
MLK1,1 µM,87 ± 5
CLK2,1 µM,76 ± 4
DYRK1A,1 µM,87 ± 1
PAK5,1 µM,84 ± 4
CDK2-cyclin A,10 µM,79 ± 2

# Series 3 — effect on: cell-free assay; technique: competition with immobilised ligand; tested at: 1 µM
# SMILES: CCCCN(CCCC)C(=O)CN1C[C@H](c2cc(OC)c3c(c2)OCO3)[C@@H](C(=O)O)[C@@H]1CC(C)(C)CCC
target,remaining binding [%]
"ERBB4 (Homo sapiens, UniProt Q15303)",100
"MET (Homo sapiens, UniProt P08581, M1250T)",100
"MAPK14 (Homo sapiens, UniProt Q16539)",100
"PRKCI (Homo sapiens, UniProt P41743)",100
"HCK (Homo sapiens, UniProt P08631)",100
"MKNK2 (Homo sapiens, UniProt Q9HBH9)",83
"TEC (Homo sapiens, UniProt P42680)",100
"AKT2 (Homo sapiens, UniProt P31751)",100

# Series 4 — action: antagonist
# Target: Beta-1 adrenergic receptor (ADRB1, Homo sapiens, UniProt P08588)
# Chain of UniProt P08588 (whole entry, looked up): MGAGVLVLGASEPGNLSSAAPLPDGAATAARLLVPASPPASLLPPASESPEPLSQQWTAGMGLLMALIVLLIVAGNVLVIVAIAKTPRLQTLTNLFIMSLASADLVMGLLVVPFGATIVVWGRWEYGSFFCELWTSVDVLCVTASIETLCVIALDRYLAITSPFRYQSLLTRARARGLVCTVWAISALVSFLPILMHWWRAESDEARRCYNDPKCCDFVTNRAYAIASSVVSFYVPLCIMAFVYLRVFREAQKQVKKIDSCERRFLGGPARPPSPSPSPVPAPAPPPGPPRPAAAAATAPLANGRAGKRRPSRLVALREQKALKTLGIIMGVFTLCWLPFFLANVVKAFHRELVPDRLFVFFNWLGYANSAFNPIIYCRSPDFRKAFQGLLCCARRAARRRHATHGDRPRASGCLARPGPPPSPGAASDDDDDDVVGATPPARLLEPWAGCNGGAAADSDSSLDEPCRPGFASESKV
Structure (SMILES),IC50
Cc1cc2oc(=O)cc(COn3nnc4ccc(Cl)cc43)c2cc1Cl,≥ 100 µM
COc1cc(CN2CCOCC2)ccc1OCC(O)CN1CCSCC1 (stereo not shown),≥ 100 µM
O=C(COc1ccccc1)Nc1ccc([C@@H](O)[C@H]2COCC(=O)N2CCCc2ccccc2)cc1,≥ 100 µM
c1cc(-c2cc(-c3ccncc3)c3cncn3c2)cc(N2CCOCC2)c1,≥ 100 µM
CCCCCCCCNCC(O)COc1ccc(SC(C)C)cc1 (stereo not shown),≥ 100 µM
COCCNCc1ccc(-c2cc3nccc(Oc4ccc(NC(=S)NC(=O)Cc5ccc(F)cc5)cc4F)c3s2)nc1,≥ 100 µM
CN(C)c1cccc(-c2nccc3c(=O)cc(N(C)C4CCOCC4)oc23)c1,≥ 100 µM
CN(C)c1ccc2c(c1)OC(N)=C(C#N)C2c1cccc(C(F)(F)F)c1 (stereo not shown),11.2 µM
Cc1ncc(-c2cc(C(=O)N3CCCCCCC3)c3cc(F)ccc3n2)cn1,≥ 100 µM
COc1cc(/C=C/C(=O)c2c(O)ccc3c(C)cc(=O)oc23)ccc1O,≥ 100 µM

# Excerpt of the above (series 3):
target,remaining binding [%]
"HCK (Homo sapiens, UniProt P08631)",100
"TEC (Homo sapiens, UniProt P42680)",100
"PRKCI (Homo sapiens, UniProt P41743)",100
"AKT2 (Homo sapiens, UniProt P31751)",100
